Measured values from different studies.
Each line is one published result; not all experiments were run side by side. Several values in a cell are separate wells, animals, samples, runs or records. ± marks the error that the study gave.

CN1CCCNC(=O)c2cccc(c2)C(=O)NCCCN(C)CCCNc2cccc3c2C(=O)c2cccc(c2C3=O)NCCC1
body weight (mouse xenograft model; dose not given, day 8, group mean): 26.4 g

Cc1cccc(O[C@H]2CCC[C@@H](C(C)CNCc3ccncc3)C2)c1 (relative stereo)
body weight (C57BL/6 wild-type mouse pups; 25 mg/kg, one month): 1.7 g and 1.5 g and 1.6 g and 1.2 g

Cc1ccnc(-c2cc(C(=O)O)ccn2)c1.F[P-](F)(F)(F)(F)F.F[P-](F)(F)(F)(F)F.[Ru+2].c1ccc(-c2ccccn2)nc1.c1ccc(-c2ccccn2)nc1
singlet oxygen yield (RNO/histidine method; PBS; with: irradiation 365 nm; relative to: phenalenone): 8%

O=c1c2ccccc2[se]n1CCCCCCn1[se]c2ccccc2c1=O
solubility (shake-flask, RP-HPLC; 1-octanol; 24 h, 25 °C): 1060 ± 80 µg/mL

CN1CCC[C@]1(C)/C=C/S(=O)(=O)NC(=O)Nc1c2c(cc3c1CCC3)CC=C2
Cmax at second steady-state dose (human, plasma; oral, 50 mg twice daily of parent drug, day 14, metabolite of dosed drug): 22500 ng/mL

O=c1[nH]c2ccccc2c(=O)n1O
Papp B→A (Caco-2; 10 µM): 4.9 ×10⁻⁶ cm/s

C#CCOCCOCCOCCOCCn1cc(C(ONC(=O)/C=C/C(C)=C/C2(C)Oc3cc(N(C)C)ccc3C2=O)(c2ccc(C)cc2)c2ccc(C)cc2)nn1 (stereo not shown)
release from prodrug hydrolysis (HPLC; aqueous buffer, 20% acetonitrile; concentration not given, 24 min, pH 3; relative to: initial prodrug amount): 93.2%

CNc1cc(N)c(C(N)=O)cn1
concentration at time (Han Wistar rats, male, plasma; oral, 30 mg/kg, 0.50 h): 33.6 µM

COCC1CN(C2CCN(c3cc(OC)c(Nc4ncc(Br)c(Nc5ccc6c(c5P(C)(C)=O)OCCO6)n4)cc3C)CC2)C1
adverse events (first-in-human trial; human; oral, 240 mg once daily; any treatment-related): 100%

CCCCN1C(=O)c2cccc3c(NCCCCCCN4CCOCC4)ccc(c23)C1=O
fluorescence lifetime (water; pH 6.0): 4.2 ns

C=C(NC(=O)c1csc(-c2nc3c(cc2O)-c2nc(cs2)C(=O)NC(C(C)O)C(=O)NC(=C(C)OC)c2nc(cs2)C(=O)NC2c4nc(cs4)C(=O)NC(COC(=O)c4c5c6c(cccc6n4O)COC(=O)C(OC4CC(C)(O)C(N(C)C)C(C)O4)C2OC5)c2nc-3cs2)n1)C(N)=O (stereo not shown)
MRT(0-last) (Sprague-Dawley rat, male, plasma; intravenous infusion, 18 mg/kg single dose): 2.36 h

Cc1c(Cc2cccc(OC(C)(C)C(=O)O)c2)c2ccc(C(=O)N[C@@H](C)c3cccc(C(C)(C)C)c3)cc2n1CC1CCC1
half-life (mouse liver microsomes; 1 µM, with: microsomes 1 mg/mL): 0.8 h

CN(O)C(=O)CCC(=O)NCCCN(CCCCN(CCCNC(=O)CCC(=O)N(C)O)C(=O)CCC(=O)N(C)O)C(=O)CCC(=O)N(C)O.[89Zr]
intact complex (radio-TLC; aqueous buffer; 1 d, pH 7.2, 37 °C, 89Zr-labelled complex, with: CaCl2 10-fold excess): 99.5 ± 0.9%

Cc1nn(-c2nc3c(F)cc(F)cc3s2)c(O)c1C(c1ccc(C(F)(F)F)cc1)c1c(C)nn(-c2nc3c(F)cc(F)cc3s2)c1O
plasma concentration (ICR mouse; oral, 50 mg/kg, 2.00 h, mean, abnormal animals excluded): 31300 ng/mL

CC(C)=CCCC(C)CN(C)CCc1ccccn1 (stereo not shown)
translation activity (Trypanosoma cruzi; reporter mRNA translation, inhibitor, refers to: Renilla luciferase mRNA; cell-free extract; concentration not given, test 3; relative to: positive over negative control): 112%

CN(C)S(=O)(=O)c1ccc(S(=O)(=O)N2CCC(n3c(=O)[nH]c4ccccc43)CC2)cc1
relative body weight (mouse; dose not given, day 3; relative to: day 0): 93% and 96% and 99%

COc1ccnc(C(=O)N[C@H]2COC(=O)[C@H](Cc3ccccc3)[C@@H](OC(=O)C(C)C)[C@H](C)OC2=O)c1O
KOC (FOCUS PEARL groundwater modelling; soil; geometric mean input): 4520 mL/g

O=C(Nc1cnccc1-c1ccc([18F])cc1)c1ccnc(NC(=O)C2CC2)c1
SUV (mice, transgenic, GSK-3β, early-stage, pancreas; intravenous, dose not given, 120 min, with: tariquidar 15 mg/kg i.v. pre-dose): 0.38

Cc1nc(N)nc2c1C(=O)N[C@@H](c1ccc(F)cc1-c1cccc(O[11CH3])n1)C2
radioactivity uptake (ex vivo biodistribution; mouse, U87 subcutaneous xenograft, tumour; dose not given, 60 min, vehicle pretreatment baseline): 3.7 ± 1.8 %ID

CC(C)n1ncc2c(C(=O)NCC3CNC3)cc(C3CC3)nc21
scaled CLint (metabolic stability; mouse, liver microsomes): < 38 mL/min/kg

CC(C)(O)c1ncc([S@](N)(=O)=NC(=O)Nc2c3c(cc4c2CCC4)CCC3)s1
subjects with TEAEs (refers to: general, administration-site conditions; healthy human; oral, 30 mg, 14 days, CS formulation, once daily): 67%

C=CC(=O)N1CCCC(n2c(=O)c3ncccc3n(Cc3ccc(Oc4ccccc4)cc3)c2=O)C1 (stereo not shown)
compound remaining (metabolic stability; male beagle dog, hepatocytes; 1 µM, 30 min): 67%

N#C[C@@H]1CC(F)(F)CN1C(=O)CNC(=O)c1ccnc2c(NC(=O)[C@H](CCCCNC(=O)CCOCCOCCOCCOCCOCCOCCNC(=O)CN3CCN(CC(=O)[O-])CCN(CC(=O)[O-])CCN(CC(=O)[O-])CC3)NC(=O)CCCc3ccc(I)cc3)cccc12.[177Lu+3]
blood radioactivity (U-87 MG tumour-bearing mice, blood; dose not given, 1 h post-injection, biodistribution): 21.4 ± 3.88%

COc1ccc(CCC(C)N2CCc3cc(O[11CH3])c(OC)cc3C2)cc1 (racemic)
polar metabolite fraction (plasma; injection, 30 min; relative to: radioactivity): 87.5 ± 2.9%

COc1cccc(OC)c1-c1cc(C(=O)NC2(C(=O)O)C3CC4CC(C3)CC2C4)nn1-c1ccc(C(=O)N(C)CCOCCN(C)C(=O)[C@H](CCCCNC(=O)[C@H](CC(C)C)NC(=O)C2OC2C(=O)O)NC(=O)CN2CCN(CC(=O)[O-])CCN(CC(=O)[O-])CCN(CC(=O)[O-])CC2)cc1C(C)C.[177Lu+3] (mixture of isomers)
tissue uptake (mouse, HT-29 xenograft, brain; 72 h post injection): 0.007 %ID/g

CC1Cc2ccccc2N1C(=O)CN1CCN(Cc2ccccc2)CC1 (stereo not shown)
blood concentration (female NMRI mice, whole blood; intraperitoneal, 10 mg/kg free base, 60 min): 71 ng/mL

C=CC(=O)Nc1cc(Nc2nccc(-c3c[nH]c4ccccc34)n2)c(OC)cc1N(C)CCN(C)C
recovery (storage stability; human plasma; 2 h, -80 °C, HQC level): 97.5%

Cc1ccc(Nc2nc(NCc3ccco3)c3ccccc3n2)cc1
translation activity (Trypanosoma cruzi; reporter mRNA translation, inhibitor, refers to: Renilla luciferase mRNA; cell-free extract; concentration not given, test 3; relative to: positive over negative control): 95.2%

CC(C)[C@H](NC(=O)[C@H](Cc1c[nH]c2ccccc12)NC(=O)[C@H](CCCNC(=N)N)NC(=O)[C@H](CCCNC(=N)N)NC(=O)[C@@H](NC(=O)[C@@H](NC(=O)[C@H](CCCNC(=N)N)NC(=O)[C@@H](NC(=O)[C@@H](NC(=O)[C@H](CCCNC(=N)N)NC(=O)[C@H](CCCNC(=N)N)NC(=O)[C@@H](NC(=O)[C@H](Cc1c[nH]c2ccccc12)NC(=O)[C@H](CCCNC(=N)N)NC(=O)[C@H](CCCNC(=N)N)NC(=O)[C@@H](NC(=O)[C@H](CCCNC(=N)N)NC(=O)[C@H](CCCNC(=N)N)NC(=O)[C@@H](NC(=O)[C@H](Cc1c[nH]c2ccccc12)NC(=O)[C@H](CCCNC(=N)N)NC(=O)[C@@H](N)CCCNC(=N)N)C(C)C)C(C)C)C(C)C)C(C)C)C(C)C)C(C)C)C(C)C)C(=O)N[C@@H](CCCNC(=N)N)C(=O)N[C@@H](CCCNC(=N)N)C(=O)O
creatinine (CD1 mouse, plasma; intravenous, 15 mg/kg, 16 h, [14C]-labelled compound): < 0.2 mg/dL

CC(C)(C)C(=O)Nc1ccc2[nH]c(CN3CCC(N(CCCN4CCOCC4)CC4OC(n5cnc6c(N)ncnc65)C(O)C4O)CC3)nc2c1 (stereo not shown)
concentration (male Sprague-Dawley rat, plasma; intraperitoneal, 20 mg/kg, 45 min): 1290 ng/mL

C/C(N)=N/C(=N\S(=O)(=O)c1ccc(C(F)(F)F)cc1)N1C[C@H](c2ccccc2)C(c2ccc(Cl)cc2)=N1
AUC(0-inf) (C57BL/6 mouse, muscle; intravenous, 10 mg/kg): 21500 ng·h/mL

O=C(c1ccccc1)N1C(c2ccc(OCC3CCN(CCCF)C3)cc2)c2ccc(O)cc2CC12CC2 (stereo not shown)
AUC(0-t) (C57BL/6J mouse, plasma; intraperitoneal, 25 mg/kg): 8200 ng·h/mL

O=C([O-])CN1CCN(CC(=O)[O-])CCN(CC(O)CN(CC(O)CN2CCN(CC(=O)[O-])CCN(CC(=O)[O-])CCN(CC(=O)[O-])CC2)C[C@H](O)[C@@H](O)[C@H](O)[C@H](O)CO)CCN(CC(=O)[O-])CC1.[Gd+3] (stereo partly shown)
log K (pH-potentiometry, spectrophotometry, refers to: Gd(HL)M, M = Cu2+; 25 °C, 0.15 M NaCl): 4.79

CC(C)C[C@@H]1NC(=O)[C@H](CCCCN)NC(=O)CNC(=O)[C@H]2CCCN2C(=O)[C@H](CCCCN)NC(=O)[C@H](CC(C)C)NC(=O)[C@H](CCCCN)NC(=O)C2CCC=CCCCC(NC(=O)[C@H](CCCCN)NC1=O)C(=O)N[C@@H](CCCCN)C(=O)NC(C(N)=O)CCCC=CCCC(N)C(=O)N[C@@H](CCCCN)C(=O)N2 (stereo partly shown)
retention time (RP-HPLC C18; hydrophobicity): 14.3 min

OC1(C(F)(F)F)CCN(c2nc(Nc3ccnc(C(F)(F)F)c3)nc(-c3cccc(C(F)(F)F)n3)n2)C1 (stereo not shown)
Tmax (Sprague-Dawley rat, both sexes, plasma; oral gavage, 5 mg/kg, day 14): 5 ± 1.1 h

CN1CCC[C@]1(C)/C=C/S(=O)(=O)NC(=O)Nc1c2c(cc3c1CC(O)C3)CCC2 (stereo partly shown)
Cmax at first steady-state dose (human, plasma; oral, 50 mg twice daily of parent drug, day 14, metabolite of dosed drug): 5600 ng/mL

O=S1(=O)CC2CCCCC2CS1 (stereo not shown)
solubility (phase solubility, NMR; water; 25 °C, with: hydroxypropyl-β-cyclodextrin 21.4 mM): 4.14 mM
